Assay results of several laboratories.
Numbered parts are unrelated; each lists some results of a single study. Substitutions count along the parent as printed.

Study 1
Target: Fragile X messenger ribonucleoprotein 1, C-terminal low-complexity region (Fmr1, Mus musculus, UniProt P35922)
Method: RNA Bind-n-Seq
Molecule type: RNA
Sample: in vitro
Tested at: 200 nM
Setting: whole 134-nt RNA, ends assumed
With: 150 mM KCl
Baseline: input library
Reading: higher = stronger binding
With `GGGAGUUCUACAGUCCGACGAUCACCUUGCAGGUGGGCAUCUUUGGGAAGUGGGGCAAGGGGGGGAUAGGGAGGGGGGUAACACUUUGGGAACAGGUGGUCCCAGGUCGUUUCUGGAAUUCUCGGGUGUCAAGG` the log2 enrichment was 0.794.
The log2 enrichment of `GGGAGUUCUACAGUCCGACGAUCAGUCCUGUGCUACACAUCGUAUGUACCGAAUCGGGCCCCCGGCCCCCGGGCCCCCGGAAAGUAUUAUGUUACGCCGUUCGGAUCUGCACUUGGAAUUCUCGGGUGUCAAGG` is reported as -0.579.
`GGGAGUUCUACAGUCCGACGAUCCCUGUGCUACACAUCGUAUGUACCGAAUCAAACCCCCCCAAACCCCCAAAUUUUUUUAAAAAAGUAUUAUGUUACGCCGUUCGGAUCUGCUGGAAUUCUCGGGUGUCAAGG` gave a log2 enrichment of -0.0528.
`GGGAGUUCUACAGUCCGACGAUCUGGGAGGUGGAUUUUGUUUAUUUUUUUAGCUCAUUUCCAGGGGUGGGAAUUUUCUUUUAAUAUGUGUCAUGAAUAAAGUUGUUUUUGAAAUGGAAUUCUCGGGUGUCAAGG` gave a log2 enrichment of 0.156.
The log2 enrichment of `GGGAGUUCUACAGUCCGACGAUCGUCCUGUGCUACACAUCGUAUGUACCGAAUCGGGAAAAAAAGGGUUUUUGGGAAAGGGAAAGUAUUAUGUUACGCCGUUCGGAUCUGCACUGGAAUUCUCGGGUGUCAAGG` is reported as -0.408.
`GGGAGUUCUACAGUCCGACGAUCAAGUCCUGUGCUACACAUCGUAUGUACCGAAUCGGUUUUGGGGUUUUGGUUUUGGGAAAGUAUUAUGUUACGCCGUUCGGAUCUGCACUUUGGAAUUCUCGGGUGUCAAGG` has a log2 enrichment of -0.507.
The log2 enrichment of `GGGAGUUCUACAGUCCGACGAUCCCUCAAGUCCUGUGCUACACAUCGUAUGUACCGAAUCGGGUGGGAGGGAGGGAAAGUAUUAUGUUACGCCGUUCGGAUCUGCACUUCCAGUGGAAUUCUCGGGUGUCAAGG` is reported as 1.51.
With `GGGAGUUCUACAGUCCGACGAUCGUCCUGUGCUACACAUCGUAUGUACCGAAUCGGGAAAAAGGGAAAAAGGAAAAAGGGGAAAGUAUUAUGUUACGCCGUUCGGAUCUGCACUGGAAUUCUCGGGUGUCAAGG` the log2 enrichment was -0.357.
With `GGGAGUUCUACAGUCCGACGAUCCCUCACCACUCCUUUCUCUUUCAUUCAGUUCCGCUCAGUGGACGAGACUACCCAGGCUAUGGCCUUUGAUGGCAUCAUCUUCCAGGGCCAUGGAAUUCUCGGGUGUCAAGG` the log2 enrichment was 0.383.
With `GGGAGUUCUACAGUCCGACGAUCUGGGAGGUGGAUUUUGUUUAUUUUUUUAGCUCAUUUCCAGGGGUGGGAAUUUUUUUUUAAUAUGUGUCAUGAAUAAAGUUGUUUUUGUAAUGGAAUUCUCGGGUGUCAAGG` the log2 enrichment was 0.398.

Study 2
Target: CCND2, cyclin fold, Cln2 fusion (human)
Method: yeast growth competition, sequencing
Sample: yeast
Setting: weak parent motif
Baseline: not given
Reading: higher = stronger binding
Starting sequence: ITGB3BP docking peptide (human); MPVKRSLKLDGLL
Under “normalised enrichment score”, `K4A` is recorded as 0.258.
Under “normalised enrichment score”, `L9A` is recorded as 0.221.
For `R5K`, “normalised enrichment score” read -0.256.
Under “normalised enrichment score”, `V3A` is recorded as 0.554.
For `D10A`, “normalised enrichment score” read -0.158.
`P2A` — result for “normalised enrichment score”: 0.124.
Under “normalised enrichment score”, `G11A` is recorded as 0.0141.

Study 3
Target: RNA binding protein fox-1 homolog 2, RRM domain, GST-SBP tag (RBFOX2, Homo sapiens, UniProt O43251-10, residues 100-194)
Method: RNA Bind-n-Seq
Molecule type: RNA
Sample: in vitro
Tested at: 365 nM
Setting: natural RNA segment, single round, ends assumed
Baseline: no-protein control
Reading: higher = stronger binding
Construct (chain): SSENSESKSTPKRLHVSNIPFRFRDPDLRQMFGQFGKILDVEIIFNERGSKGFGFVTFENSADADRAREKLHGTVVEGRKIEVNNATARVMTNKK
`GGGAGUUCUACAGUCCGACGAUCGACCCAGCUUGUCUCUCCUUGUUUCUUCCCACUGCACUGUGGUGCUUCAGUGGCCACCAGCCUCGUCACAUACACCAGCAUCUUUCUGUACCUCCUCCCUUUGGUGACCUUGGAAUUCUCGGGUGCCAA` — result for “RBNS enrichment (R)”: 0.895.
For `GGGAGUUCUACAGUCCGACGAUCUAUGAUAUAUUUCAGCUUAAAGUUAUGUUAUUAUAUGUGGAAGUGUAAAUAUAGAUUUGGUGUUUUGAAUCUUGAGUUUUAGUGUUUAUUGUGUUUCUGGUUUCUGAUUUUGGAAUUCUCGGGUGCCAA`, “RBNS enrichment (R)” read 2.4.
For `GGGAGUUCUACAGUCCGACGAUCUGAAAUUCACUGAAGAAAAAUAUGUGAAGGACCUUCACUCUGAGAUGUUAUAUUUUUUUUUAAAAAUAACUCUGAGUAGGGGUACCACUGAAUCUGUACAGAGCCGUACAUGGAAUUCUCGGGUGCCAA`, “RBNS enrichment (R)” read 0.407.
`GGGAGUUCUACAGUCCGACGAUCCCUAUUUAUGGGGUCUGACCAACUGCACCCACUCCCUAAUAAAUUCAUUCUCCUUGGGAGCCUCCUUCUCCUCUUUGUUGGGAAAUAUUUUUAGCUCUUGGCGGGCUCAAUGGAAUUCUCGGGUGCCAA`: “RBNS enrichment (R)” 0.529.
For `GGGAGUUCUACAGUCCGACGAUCGGGUGACCAAAACAGUACAUCAGUUCCUGAGAUAUUCAAGCAAAUGCCCCCGAUAGCAUAGUGUGUGCCAACCGGUACACCUGACUCAGCAUUAGGAUCCUAUAACCAUGUGGAAUUCUCGGGUGCCAA`, “RBNS enrichment (R)” read 0.297.
For `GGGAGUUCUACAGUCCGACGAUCCUGUACCGACACCCCUACAGGAGAAGCUCUGGGACUGGGGCAGCAGCAAGGCGCCCAUGCCACACACCGUCUCUCGAGGAAACGCGGUUCAGCGAUUCUUUGACUGCGGAUGGAAUUCUCGGGUGCCAA`, “RBNS enrichment (R)” read 0.302.
`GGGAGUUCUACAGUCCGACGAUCAUCUCCAUUAUCCCGUGCACAUAAGCCAAUCCAGUUGAAUGUGGACAUUACGUUCAAGUGGGCCUCCUGGAACUUAAGAACAAGCACCUCUCCUGUCCCCUUCUGUGUGCUGGAAUUCUCGGGUGCCAA` — result for “RBNS enrichment (R)”: 0.521.
Under “RBNS enrichment (R)”, `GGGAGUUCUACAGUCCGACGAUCUAUUUUUUUUUACCUCUAUCAGGGUUUUUAUUUGAAAGUGUGCUCUUACCAUUUCCUUGUUUGAGUAAGAGAGUGAAUGGUUCUGAGUGUUUAGGAAGGAUUUGCUUGCUUGGAAUUCUCGGGUGCCAA` is recorded as 2.3.
`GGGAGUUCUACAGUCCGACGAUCUGGGAUGUAGGAUUACCUAGCUAUGGUAAAGGAUUGCCACAGCAAACUGUGACACUGUGUAAUGAGCACUGUUCCCAGCGGCAAUUACAGAGAAAACGAGUGUAAAUUAUUGGAAUUCUCGGGUGCCAA`: “RBNS enrichment (R)” 0.235.
`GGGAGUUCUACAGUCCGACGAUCCCUUAAAGCAAUAACUGACAACUCUUUGUAGUCCUCCUUGUGGGUAGUUAAGAGUGGGGUCACCCCUUUAACUCCAAGCACUACAUUUUGGCGGCUGCCGGCCUCUGGGGUGGAAUUCUCGGGUGCCAA` — result for “RBNS enrichment (R)”: 0.375.
Under “RBNS enrichment (R)”, `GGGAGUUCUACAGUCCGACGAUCUGAGUAAACUCUAAAUUGUUAAAUAUUUAUGCUGCUAUAAAUUAGAAUUACCUAUUCUACGUGCCUUUUCUUAGGAAAAGAGAGUACUGGAUCAUGGUUUUCUUCCUUACUGGAAUUCUCGGGUGCCAA` is recorded as 0.809.
`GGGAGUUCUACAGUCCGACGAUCACCCCAGACCCCCACUCUUCACUGUUGGUGUGAUAGACCUAAGAACCACAUUAGCACCCUGCCAGCCUACCAGCCUCUCUGUGCACAGCUUCUAAUGUUAUGAUCUAGCUUGGAAUUCUCGGGUGCCAA`: “RBNS enrichment (R)” 0.878.

Study 4
Target: Protein C-ets-1 (ETS1, Homo sapiens, UniProt P14921, residues 1-441, K379A, full length assumed)
Sequence of UniProt P14921 (whole entry, unmodified, looked up): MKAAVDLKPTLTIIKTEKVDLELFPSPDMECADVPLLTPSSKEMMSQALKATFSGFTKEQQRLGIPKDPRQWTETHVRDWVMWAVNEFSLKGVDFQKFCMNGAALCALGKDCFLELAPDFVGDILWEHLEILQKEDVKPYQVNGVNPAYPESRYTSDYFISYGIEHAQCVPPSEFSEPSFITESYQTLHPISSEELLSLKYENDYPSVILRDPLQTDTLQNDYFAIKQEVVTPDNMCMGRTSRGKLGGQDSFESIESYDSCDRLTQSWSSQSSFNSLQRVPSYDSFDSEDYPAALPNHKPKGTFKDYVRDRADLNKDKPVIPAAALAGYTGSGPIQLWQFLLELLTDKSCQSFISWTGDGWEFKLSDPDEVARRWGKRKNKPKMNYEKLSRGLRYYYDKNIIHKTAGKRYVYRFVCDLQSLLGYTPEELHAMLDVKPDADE
Method: protein-binding microarray
Molecule type: double-stranded DNA, one strand shown
Sample: in vitro
Tested at: not given
Setting: k-mer, scored over probes, only values ≥0.25
Reading: higher = stronger binding
The E-score of `GAATTACA` is reported as 0.277.
`TACTACAA` has an E-score of 0.252.
`CCACCGGG` gave an E-score of 0.288.
For `ATTGCGTC`, the E-score was 0.267.
`CGTACATA` has an E-score of 0.272.
`ATTTTCCG` gave an E-score of 0.273.
For `CGCCAAAA`, the E-score was 0.256.
The E-score of `ATAACGGA` is reported as 0.263.
`ATCACCGG` has an E-score of 0.365.
The E-score of `AACCGGGA` is reported as 0.449.
`CCCGGTGA` gave an E-score of 0.284.
The E-score of `AGTATATA` is reported as 0.269.
The E-score of `ATATACAA` is reported as 0.336.
The E-score of `ACCGGAAG` is reported as 0.492.
`CCCTCCCC` has an E-score of 0.268.
With `GTGTTGTA` the E-score was 0.258.
`ACCGACAC` has an E-score of 0.392.
`CGACACAA` gave an E-score of 0.27.
The E-score of `TACAGGAA` is reported as 0.293.
`ATGTTCCG` gave an E-score of 0.253.
The E-score of `CGCCCCTC` is reported as 0.277.

For quick reference, copied from above (study 4):
`CCACCGGG` gave an E-score of 0.288.
For `ATTGCGTC`, the E-score was 0.267.
`CGTACATA` has an E-score of 0.272.
`ATTTTCCG` gave an E-score of 0.273.
For `CGCCAAAA`, the E-score was 0.256.
